{"data": "Measured values of several laboratories", "note": "Parts stem from different laboratories: compare values within a part only. Substitutions count along the parent as printed."}
{"data": "Series 1", "target": "CRIPT, C-terminal peptide", "technique": "DHFR complementation, deep sequencing", "medium": "yeast", "setting": "single substitutions, model-inferred values", "baseline": "wild type", "reading": "higher = weaker binding", "starting sequence": "ERBIN, PDZ domain 1 (human); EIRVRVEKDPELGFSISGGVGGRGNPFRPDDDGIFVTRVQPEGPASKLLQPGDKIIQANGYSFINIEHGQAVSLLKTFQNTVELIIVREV; partner TKNYKQTSV"}
{"Substitution": "A45G", "binding free energy change [kJ/mol]": 1.51}
{"Substitution": "N25E", "binding free energy change [kJ/mol]": 4.44}
{"Substitution": "P26K", "binding free energy change [kJ/mol]": 3.6}
{"Substitution": "V90I", "binding free energy change [kJ/mol]": -0.155}
{"Substitution": "V72L", "binding free energy change [kJ/mol]": 6.44}
{"Substitution": "E11V", "binding free energy change [kJ/mol]": -3.45}
{"Substitution": "E7G", "binding free energy change [kJ/mol]": -0.153}
{"Substitution": "D9P", "binding free energy change [kJ/mol]": 6.29}
{"data": "Series 2", "target": "RNA binding protein fox-1 homolog 2, RRM domain, GST-SBP tag (RBFOX2, Homo sapiens, UniProt O43251-10, residues 100-194)", "technique": "RNA Bind-n-Seq", "molecule type": "RNA", "medium": "in vitro", "tested at": "365 nM", "setting": "natural RNA segment, single round, ends assumed", "baseline": "no-protein control", "reading": "higher = stronger binding", "shared flanks, not repeated": "GGGAGUUCUACAGUCCGACGAUC … UGGAAUUCUCGGGUGCCAA", "Target sequence (chain)": "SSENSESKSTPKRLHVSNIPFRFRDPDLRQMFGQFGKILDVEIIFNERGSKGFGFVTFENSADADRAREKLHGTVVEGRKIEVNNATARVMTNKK"}
{"Oligonucleotide": "GGCAUAAGCUGGACUUUGUCGCCACUAGAUGACAAGAUGGUAUACCUAAGCUAACCACACGUGUGUAUCUCAAGGGACUUAAAUUCAGCUGUCUGUAGUGAAUUCAAGUG", "RBNS enrichment (R)": 0.328}
{"Oligonucleotide": "UUUUUUAAUUACCCUUUUGCAGGCUCCCACCUUUAAUCUGUUUUAUACCUUGCUUAUUAAAUGAGCGACUUAAAAUGAUUGAAAAUAAUGCUGUUCUUUAGUAGCAACUA", "RBNS enrichment (R)": 0.353}
{"Oligonucleotide": "CAUUUCCUCCAUUCAUAGAGGGCAAUAAGCAAGACCUGUAGACCCAAAGCACAGGUUUAUUCUAAAGAAAACUUUUACGACAAUACUUUCUGUAUUGUCUAGGUUAAGCC", "RBNS enrichment (R)": 0.194}
{"Oligonucleotide": "ACACCCUCCCCUCUUGUCUACUCACUCCUAGGGCGUUUCUUUGCCGAUUUUUGAAUGUGAUUUUAAAGAGUGGAAAAUGAGACUAUGCGUUUUUAUAAAAAAUGGUGCCU", "RBNS enrichment (R)": 0.892}
{"Oligonucleotide": "CGUGCCUGGCUGGUGCCAUUCAGACCGAGGCCGAAGGACUUGUGAACAAAAGCACAGAGAUGGCUCAGUGGUUAGGAGCACUGACUCCUUUUCCGUAGGUCCUGAGUUCA", "RBNS enrichment (R)": 0.35}
{"Oligonucleotide": "AGAUUUACAGCUUAUGCUAGGCCCACCCAACUGGACAAGGCUGUCUCCUGUCUUCUACUACCCUGGCUCAGCCCCCACCUCUGCCCCUGAAAUGCGUGCUCCCACCAAGG", "RBNS enrichment (R)": 1.28}
{"Oligonucleotide": "CUCGUUGUUUUCCCAAAGCUAAAUCUUUAUACUAAAUGCAAUACUGACUUUUUCUUAAGUAGCUAAAGACCGAGAGUAUACUAUCUUUAGGGAUAGUCAUUUCUCAAAUG", "RBNS enrichment (R)": 0.342}
{"Oligonucleotide": "GUGGGCACAAAAUGACAGAACAUAGGACAUUCUAAAGUUCCUUGAUUUGAUCAUUAUAAGAAGUGUGGGACUCAAGCACAGGAAACUGAACUCUUUUGGUGUCAUUGGAU", "RBNS enrichment (R)": 0.776}
{"data": "Series 3", "target": "Sox, HMG box (Pigoraptor chileana)", "technique": "Spec-seq", "molecule type": "double-stranded DNA, one strand shown", "medium": "in vitro", "tested at": "not given", "setting": "whole probe, mean of replicates", "baseline": "not given", "reading": "lower = stronger binding", "shared flanks, not repeated": "GAGTCGTCTCGTCAGCAC … CCGTAGAGCACTCAGGTC", "Construct (chain)": "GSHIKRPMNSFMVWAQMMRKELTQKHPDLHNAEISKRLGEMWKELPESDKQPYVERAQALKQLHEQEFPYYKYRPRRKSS"}
{"Oligonucleotide": "CGGAGTT", "relative binding energy [ln ratio]": 1.4}
{"Oligonucleotide": "AAGAGTT", "relative binding energy [ln ratio]": -0.65}
{"Oligonucleotide": "CGCCGTT", "relative binding energy [ln ratio]": 1.02}
{"Oligonucleotide": "CTCGGTT", "relative binding energy [ln ratio]": 0.795}
{"Oligonucleotide": "CATGTAA", "relative binding energy [ln ratio]": 0.411}
{"Oligonucleotide": "CATGCTG", "relative binding energy [ln ratio]": 0.658}
{"Oligonucleotide": "CGGGGTT", "relative binding energy [ln ratio]": 1.64}
{"Oligonucleotide": "GAGGGTT", "relative binding energy [ln ratio]": 1.38}
{"data": "Mixed results", "starting sequence": "viral docking peptide; KGVKRKLFAEDSS"}
{"Substitution": "D11H", "target": "CCNA2, cyclin fold, Cln2 fusion (human)", "assay": "yeast growth competition, sequencing", "test system": "yeast", "setting": "strong parent motif", "scale": "baseline: not given, higher = stronger binding", "endpoint": "normalised enrichment score", "value": 6.06}
{"note": "For quick reference, copied from above (series 1):"}
{"Substitution": "P26K", "binding free energy change [kJ/mol]": 3.6}
{"Substitution": "V90I", "binding free energy change [kJ/mol]": -0.155}
